Measurements gathered from unrelated publications.
“And” joins repeats or separate records; there may be more than shown. ± marks the error that the study gave.
Technique: steady-state kinetics
B1: enzyme E217L/L163H/N249W (Thermobifida fusca, UniProt Q47RK4); chain MTDVYILDAVRTPFGRYGGALSGIRPDDLAAHVLRALAERSPGLDPAAVDDVFFGDANGAGEDNRNVARMAALLAGWPTSVPGVTLNRLCGSGMESVIAANRAIAVGDASLAVAGGVESMSRAPWVLPKPAQGFPTGHETLYSTTLGWRMVNPAMPEQWTVSHGESTEQVAATYGISRAEQDAFALRSHERAARAWAEGVFDAEITQIPGAELERDLSIRETSAEKLAALKPAFRPDGTITAGNASPLWDGAAALLIGDAAAAERVGREPLARIVSRGVAAVDPDVFGIGPVQAAEIALRRAGIGWDDLSVVELNEAFAAQSLACLKLWPDLDPEIVNPNGGAIAIGHPLGASGARIVGTLAHELHRRGGGWGLAAICIGVGQGLAVVLHR
B2: YjiA C66A/C67A/E37A (Escherichia coli, UniProt P24203); chain MNPIAVTLLTGFLGAGKTTLLRHILNEQHGYKIAVIANEFGEVSVDDQLIGDRATQIKTLTNGCIAASRSNELEDALLDLLDNLDKGNIQFDRLVIECTGMADPGPIIQTFFSHEVLCQRYLLDGVIALVDAVHADEQMNQFTIAQSQVGYADRILLTKTDVAGEAEKLHERLARINARAPVYTVTHGDIDLGLLFNTNGFMLEENVVSTKPRFHFIADKQNDISSIVVELDYPVDISEVSRVMENLLLESADKLLRYKGMLWIDGEPNRLLFQGVQRLYSADWDRPWGDEKPHSTMVFIGIQLPEEEIRAAFAGLRK
B3: protein L361A (Streptomyces toyocaensis, UniProt Q8KLK7); chain MTTVLPPLEDTDGLWAALTEAAASVEKLLATLPEHGARSSAERAEIAAAHDAARALRVRFLDTHADAVYDRLTDHRRVHLRLAELVEAAATAFPGLVPTQQQLAVERSLPQAAKEGHEIDQGIFLRAVLRSPLAGPHLLDAMLRPTPRALELLPEFVRTGEVEMEAVHLERRDGVARLTMCRDDRLNAEDGQQVDDMETAVDLALLDPGVRVGLLRGGVMSHPRYRGKRVFSAGINLKYLSQGGISLVDFLMRRELGYIHKLVRGVLTNDDRPGWWHSPRIEKPWVAAVDGFAIGGGAQLLLVFDRVLASSDAYFSLPAAKEGIIPGAANLRLGRFAGPRVSRQVILEGRRIWAKEPEARALVDEVVEPDELDAAIERSLTRLDGDAVLANRRMLNLADESPDGFRAYMAEFALMQALRLYGHDVIDKVGRFGGRPPA
B4: enzyme D392A (Acetivibrio thermocellus, UniProt A3DJ38); chain MKLTIPELSLVVLIGSSGSGKSTFAKKHFKPTEVISSDFCRGLVSDDENDQTVTGAAFDVLHYIVSKRLQLGKLTVVDATNVQESARKPLIEIAKDYHCFPVAVVFNLPEKVCQERNKNRTDRQVEEYVIRKHTQQLKKSIKGLQREGFRYVYILNSPEEVEEVVFERQPLWNNKKDEHGPFDIIGDIHGCYDELKMLLEKLGYLIEEVEGGVGSGKYRVTHPEGRKVLFLGDLVDRGPKITEVLKLVMGMVKSGIALCVPGNHDVKLLRKLNGRDVQITHGLDRTLEQLAKEPQEFIEEVKAFIDGLVSHYVLDDGKLVVAHAGMKEEFQGRGSGKVREFALYGETTGETDEYGLPVRYDWASDYRGKALVVYGHTPQAEVLKVNNTINIATGCVFGGKLTAYRYPEREIVDVKALKTYYEPAKPFLPKEDMAERFEARTDNDILDINDVLGKKIITTRLMSSITIHEENSIAALEVMSRFAADPHWLIYLPPTMSPCETSKKEGMLEHPIEAFEYFRTRGVGKVVCEQKHMGSRAVVIVCKDSQVAEKRFGVLDGTAGICYTRTGRHFFDDMQLEAELIDRVRKVLDKSGFWGDFNTDWVCLDCELMPWSAKAQKLLEEQYSAVGISGRVVLDEAVKLLKQASLNKTVSFDVSRQTSGKNADINELLQRFTERSEMMQKYVEAYRKYCWPVNSIDDLKLAPFHILATEGKVHSDKNHIWHMDTIAKYCTQDDSLIMATNHILVDVTDAESVDKGIKWWEDLTASGGEGMVVKPYDFIVKNGRELLQPAVKCRGREYLRIIYGPEYTMDENIERLRNRAVGKKRSLALREFSLGMEALERFVRNEPLYRVHECVFGVLALESEPVDPRL
B5: nitrilase Y142A (Rhodococcus rhodochrous, UniProt A4LA85); chain MVEYTNTFKVAAVQAQPVWFDAAKTVDKTVSIIAEAARNGCELVAFPEVFIPGYPYHIWVDSPLAGMAKFAVRYHENSLTMDSPHVQRLLDAARDHNIAVVVGISERDGGSLYMTQLIIDADGQLVARRRKLKPTHVERSVAGEGNGSDISVYDMPFARLGALNCWEHFQTLTKYAMYSMHEQVHVASWPGMSLYQPEVPAFGVDAQLTATRMYALEGQTFVVCTTQVVTPEAHEFFCENEEQRKLIGRGGGFARIIGPDGRDLATPLAEDEEGILYADIDLSAITLAKQAADPVGHYSRPDVLSLNFNQRRTTPVNTPLSTIHATHTFVPQFGALDGVRELNGADEQRALPSTHSDETDRATASI
B6: CPN1 (Homo sapiens, UniProt P15169); chain VTFRHHRYDDLVRTLYKVQNECPGITRVYSIGRSVEGRHLYVLEFSDHPGIHEPLEPEVKYVGNMHGNEALGRELMLQLSEFLCEEFRNRNQRIVQLIQDTRIHILPSMNPDGYEVAAAQGPNKPGYLVGRNNANGVDLNRNFPDLNTYIYYNEKYGGPNHHLPLPDNWKSQVEPETRAVIRWMHSFNFVLSANLHGGAVVANYPYDKSFEHRVRGVRRTASTPTPDDKLFQKLAKVYSYAHGWMFQGWNCGDYFPDGITNGASWYSLSKGMQDFNYLHTNCFEITLELSCDKFPPEEELQREWLGNREALIQFLEQVHQGIKGMVLDENYNNLANAVISVSGINHDVTSGDHGDYFRLLLPGIYTVSATAPGYDPETVTVTVGPAEPTLVNFHLKRSIPQVSPVRRAPSRRHGVRAKVQPQARKKEMEMRQLQRGPA
B7: nitrilase Y142F (Rhodococcus rhodochrous, UniProt A4LA85); chain MVEYTNTFKVAAVQAQPVWFDAAKTVDKTVSIIAEAARNGCELVAFPEVFIPGYPYHIWVDSPLAGMAKFAVRYHENSLTMDSPHVQRLLDAARDHNIAVVVGISERDGGSLYMTQLIIDADGQLVARRRKLKPTHVERSVFGEGNGSDISVYDMPFARLGALNCWEHFQTLTKYAMYSMHEQVHVASWPGMSLYQPEVPAFGVDAQLTATRMYALEGQTFVVCTTQVVTPEAHEFFCENEEQRKLIGRGGGFARIIGPDGRDLATPLAEDEEGILYADIDLSAITLAKQAADPVGHYSRPDVLSLNFNQRRTTPVNTPLSTIHATHTFVPQFGALDGVRELNGADEQRALPSTHSDETDRATASI
B8: enzyme Q449A (Limosilactobacillus reuteri, UniProt Q8GP32); chain SADTNIENNDSSTVQVTTGDNDIAVKSVTLGSGQVSAASDTTIRTSANANSASSAANTQNSNSQVASSAAITSSTSSAASSNNTDSKAAQENTNTAKNDDTQKAAPANESSEAKNEPAVNVNDSSAAKNDDQQSSKKNTTAKLNKDAENVVKKAGIDPNSLTDDQIKALNKMNFSKAAKSGTQMTYNDFQKIADTLIKQDGRYTVPFFKASEIKNMPAATTKDAQTNTIEPLDVWDSWPVQDVRTGQVANWNGYQLVIAMMGIPNQNDNHIYLLYNKYGDNELSHWKNVGPIFGYNSTAVSQEWSGSAVLNSDNSIQLFYTRVDTSDNNTNHQKIASATLYLTDNNGNVSLAQVANDHIVFEGDGYYYQTYDQWKATNKGADNIAMRDAHVIEDDNGDRYLVFEASTGLENYAGEDQIYNWLNYGGDDAFNIKSLFRILSNDDIKSRATWANAAIGILKLNKDEKNPKVAELYSPLISAPMVSDEIERPNVVKLGNKYYLFAATRLNRGSNDDAWMNANYAVGDNVAMVGYVADSLTGSYKPLNDSGVVLTASVPANWRTATYSYYAVPVAGKDDQVLVTSYMTNRNGVAGKGMDSTWAPSFLLQINPDNTTTVLAKMTNQGDWIWDDSSENLDMIGDLDSAALPGERDKPVDWDLIGYGLKP
B9: protein N172D (Rhodopseudomonas palustris, UniProt Q6N3R9); chain MSNVRVLATDLAFPEGPVVMPDGSVVLVEIRAQQLTRVWPDGRKEVVAKVPGGPNGAALGPDGKMYICNNGGFGWFPSRGTMMPGAPAPHEYIGGSIQRVDLQSGEVETLFDKCGEHPLKGPNDLVFDKHGGLWFTDLGKRRARDMDVGAAYYIKPGMTEITEQVFGTLPLDGIGLSPDEATMYAAETPTGRLWAFDLSGPGEVKPRDVIYRGEKGKPICGLGGYQMFDSLAVEASGNVCVATLVSGCISVIAPDGTLVEQVPTGDRVTTNIAFGGPDLKTAYITLSGKGELIAMDWSRPGLPLNFLNK
Chain of UniProt C5B120 (whole entry, looked up): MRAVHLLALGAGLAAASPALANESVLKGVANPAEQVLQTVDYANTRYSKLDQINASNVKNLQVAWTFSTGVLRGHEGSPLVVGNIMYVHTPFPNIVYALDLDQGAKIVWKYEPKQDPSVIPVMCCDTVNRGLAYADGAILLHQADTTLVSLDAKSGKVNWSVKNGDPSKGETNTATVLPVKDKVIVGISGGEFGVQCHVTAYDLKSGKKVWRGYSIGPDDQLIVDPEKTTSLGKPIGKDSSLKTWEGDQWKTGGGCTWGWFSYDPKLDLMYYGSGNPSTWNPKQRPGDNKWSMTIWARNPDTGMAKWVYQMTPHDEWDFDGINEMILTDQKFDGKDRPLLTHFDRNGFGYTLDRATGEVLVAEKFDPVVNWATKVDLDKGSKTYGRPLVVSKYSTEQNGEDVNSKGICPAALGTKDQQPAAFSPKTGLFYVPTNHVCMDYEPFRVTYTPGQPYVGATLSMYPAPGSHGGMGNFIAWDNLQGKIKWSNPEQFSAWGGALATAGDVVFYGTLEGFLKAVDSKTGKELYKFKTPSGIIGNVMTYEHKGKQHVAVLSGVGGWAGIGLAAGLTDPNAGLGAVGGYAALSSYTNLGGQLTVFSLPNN

Molecule = B1 (enzyme E217L/L163H/N249W); substrate = CC(C)(COP(=O)(O)OP(=O)(O)OC[C@H]1O[C@@H](n2cnc3c(N)ncnc32)[C@H](O)[C@@H]1OP(=O)(O)O)[C@@H](O)C(=O)NCCC(=O)NCCSC(=O)CC(=O)O; setting = pH 7.4, 37 °C; kcat = 0.003 ± 0.0035 s⁻¹
Molecule = B2 (YjiA C66A/C67A/E37A); substrate = Nc1nc2c(ncn2[C@@H]2O[C@H](COP(=O)(O)OP(=O)(O)OP(=O)(O)O)[C@@H](O)[C@H]2O)c(=O)[nH]1; setting = pH 7.6, 37 °C, apo, anaerobic, with: MgCl2 5 mM; kcat = 0.0005 ± 0.0001 s⁻¹
Molecule = B3 (protein L361A); substrate = CC(C)(COP(=O)(O)OP(=O)(O)OC[C@H]1O[C@@H](n2cnc3c(N)ncnc32)[C@H](O)[C@@H]1OP(=O)(O)O)[C@@H](O)C(=O)NCCC(=O)NCCSC(=O)Cc1cc(O)cc(O)c1; setting = pH 7.5, 24 °C, with: O2; kcat = 0.18 ± 0.02 s⁻¹
Molecule = xoxF1 (Methylorubrum extorquens, UniProt C5B120); substrate = CO; setting = 30 °C; kcat = 4 ± 0.2 s⁻¹
Molecule = ω-transaminase A60V/E38Q/F86L/I154V/M128F/P9A/R417L/S87N/W58M (Pseudomonas jessenii); substrate = CCCC(=O)c1ccccc1; setting = pH 8, 56 °C, apparent, with: isopropylamine 1 M, PLP 0.05 mM; kcat = 2.5 ± 0.2 s⁻¹
Molecule = tgt C145V/P147N/T146V/V217G (Escherichia coli); substrate = Nc1nc2nc[nH]c2c(=O)[nH]1; setting = pH 7.3, 37 °C; kcat = 0.00062 s⁻¹
Molecule = B4 (enzyme D392A); substrate = Nc1ncnc2c1ncn2[C@@H]1O[C@H](CO)[C@H]2OP(=O)(O)O[C@H]21; setting = pH 7.5, 45 °C; kcat = 1.77 ± 0.075 s⁻¹
Molecule = B5 (nitrilase Y142A); substrate = Cc1cccc(C#N)c1; setting = pH 7.5, 25 °C; kcat = 0.000188 ± 1e-05 s⁻¹
Molecule = fcl (Campylobacter jejuni, UniProt Q0P8I6); substrate = Nc1nc2c(ncn2[C@@H]2O[C@H](COP(=O)(O)OP(=O)(O)O[C@H]3O[C@@H]([C@H](O)CO)C(=O)[C@@H](O)[C@@H]3O)[C@@H](O)[C@H]2O)c(=O)[nH]1; setting = pH 7.5, 30 °C, apparent; kcat = 6.1 ± 0.2 s⁻¹
Molecule = wbpB (Pseudomonas aeruginosa, UniProt G3XD23); substrate = O=C(O)CCC(=O)C(=O)O; setting = pH 8.5, 25 °C; kcat = 5550 ± 70 s⁻¹
Molecule = B6 (CPN1); substrate = C[C@H](NC(=O)[C@H](Cc1ccccc1)NC(=O)[C@H](CCC(N)=O)NC(=O)CNC(=O)[C@@H]1CCCN1C(=O)[C@H](Cc1ccccc1)NC(=O)[C@@H](N)Cc1ccc(O)cc1)C(=O)N[C@@H](Cc1ccccc1)C(=O)N[C@@H](CO)C(=O)N[C@@H](CCCCN)C(=O)O; setting = 37 °C; kcat = 80.3 ± 5 s⁻¹
Molecule = B7 (nitrilase Y142F); substrate = N#CCCCC#N; setting = pH 7.5, 25 °C; kcat = 0.0001767 ± 1.67e-06 s⁻¹
Molecule = B8 (enzyme Q449A); substrate = OC[C@H]1O[C@@](CO)(O[C@H]2O[C@H](CO)[C@@H](O)[C@H](O)[C@H]2O)[C@@H](O)[C@@H]1O; setting = pH 5.5, 50 °C, apparent; kcat = 430 s⁻¹ and 450 s⁻¹
Molecule = azu N30H/N36H/Q34H (Pseudomonas aeruginosa); substrate = O=NO; setting = pH 6.35; kcat = 0.00933 s⁻¹
Molecule = B9 (protein N172D); substrate = O=C1CCc2ccccc2O1; setting = pH 8, NaCl 150 mM, no saturation, with: CaCl2 1 mM; kcat = > 14 s⁻¹

A few entries again:
Molecule = fcl (Campylobacter jejuni, UniProt Q0P8I6); substrate = Nc1nc2c(ncn2[C@@H]2O[C@H](COP(=O)(O)OP(=O)(O)O[C@H]3O[C@@H]([C@H](O)CO)C(=O)[C@@H](O)[C@@H]3O)[C@@H](O)[C@H]2O)c(=O)[nH]1; setting = pH 7.5, 30 °C, apparent; kcat = 6.1 ± 0.2 s⁻¹
Molecule = wbpB (Pseudomonas aeruginosa, UniProt G3XD23); substrate = O=C(O)CCC(=O)C(=O)O; setting = pH 8.5, 25 °C; kcat = 5550 ± 70 s⁻¹
